# Measurements collected from several papers.
# Lines come from different studies, so protocols differ. “And” joins repeats or separate records; there may be more than shown. ± gives the spread as reported.
# UCHL1: Ubiquitin carboxyl-terminal hydrolase isozyme L1 (UCHL1, Homo sapiens, UniProt P09936)
# PAK1: Serine/threonine-protein kinase PAK 1 (PAK1, Homo sapiens, UniProt Q13153)
# TOP2B: DNA topoisomerase 2-beta (TOP2B, Homo sapiens, UniProt Q02880)
# Voltage-dependent P/Q-type calcium channel subunit alpha-1A: Voltage-dependent P/Q-type calcium channel subunit alpha-1A (Homo sapiens, UniProt O00555)
# BEST1: BEST1 (Homo sapiens, UniProt O76090)
SMILES,target,test,test system,conditions,how to read,measurement,result
c1coc(-c2n[nH]cc2-c2ccnc3ccccc23)c1,"Histidine protein kinase NIK1 (NIK1, Candida albicans, UniProt Q5A599)","kinase binding, MIB/MS competition",Candida albicans lysate,1 µM,"baseline: DMSO, negative = stronger binding",log2 fold change,-0.21
Cc1cc(Oc2ncccc2CN2CCN(c3ccc(Cl)cc3)CC2)ccc1-c1c(C)c(=O)[nH]c(=O)n1C,"ADRA2C (Homo sapiens, UniProt P18825)","binding, radioligand binding",,with: [3H]rauwolscine,baseline: Ki alpha2B over Ki alpha2C,selectivity ratio,4
N#CC(=Cc1ccc(OC(F)F)cc1)C(=O)N1CCCc2ccccc21,UCHL1,"covalent, intact protein LC-MS",,12.5 µM,,labelling,31.7%
CC[C@@H]1[C@H](F)C(=O)N[C@@H]1COc1nccc2cc(C(N)=O)c(OC)cc12,"PTK2B (Homo sapiens, UniProt Q14289)","ATP probe binding, KiNativ profiling, refers to: activation loop probe site",THP-1 cell lysate,0.2 mM,,inhibition,-18.6%
Nc1ncnc2c1nc(N/N=C/c1ccc([N+](=O)[O-])cc1)n2[C@@H]1O[C@H](CO)[C@@H](O)[C@H]1O,"B4GALT1 (Homo sapiens, UniProt P15291)","enzyme activity, inhibitor, UDP-Glo",,100 µM,lower means stronger inhibition,luminescence,76900 a.u.
C=CC(=O)N1CCC(C(=O)NCC(=O)N2CCN(c3nc(-c4cnc(N)nc4C(F)F)nc(N4CCOCC4)n3)CC2)CC1,PAK1,KINOMEscan,,1 µM,,remaining binding,92%
CO[C@H]1O[C@H](COS(=O)(=O)O)[C@@H](O[C@@H]2O[C@@H](C(=O)O)[C@@H](O[C@H]3O[C@H](COS(=O)(=O)O)[C@@H](O[C@@H]4O[C@H](C(=O)O)[C@@H](O[C@H]5O[C@H](COS(=O)(=O)O)[C@@H](O)[C@H](O)[C@H]5NS(=O)(=O)O)[C@H](O)[C@H]4O)[C@H](OS(=O)(=O)O)[C@H]3NS(=O)(=O)O)[C@H](O)[C@H]2OS(=O)(=O)O)[C@H](O)[C@H]1NS(=O)(=O)O,"Beta-2-glycoprotein 1, domain V (APOH, Homo sapiens, UniProt P02749, V266L)",isothermal titration calorimetry,,"concentration not given, 298 K, with: 50 mM NaCl",,binding enthalpy ΔH,-43.2 ± 0.787 kJ/mol
Cc1nc(CSc2nc(SCc3ccc(C(C)C)cc3)nc(=O)[nH]2)cs1,TOP2B,decatenation,,125 µM,,mean decatenated DNA,0.12%
CN[C@H]1CC[C@@H](c2ccc(Cl)c(Cl)c2)c2ccccc21,Voltage-dependent P/Q-type calcium channel subunit alpha-1A,"ion current, antagonist, automated patch clamp",,,,IC30,0.955 µM
Cc1ccnc([18F])c1-c1cccc(N2C[C@H](N3CCN(C(=O)c4nccs4)CC3)CC2=O)c1,"Monoglyceride lipase (Macaca mulatta, UniProt H9ESL3)",PET Scatchard plot,"rhesus monkey, brain HIP",baseline,,Bmax,32.9 nmol/g
NC(=O)C[C@H](N)C(=O)O,L-asparaginase Trichosporon asahii,"substrate, Nesslerization",,"pH 7.5, 35 °C",,Km,16.6 µM
CC(=O)N1CCC[C@H]1C(=O)NCCNC(=O)Cn1[nH]c(=O)c2ccccc2c1=O,"TNKS (Homo sapiens, UniProt O95271)","enzyme activity, inhibitor",,,,ligand efficiency,0.25
O=c1nc(SCc2cc(F)cc(C(F)(F)F)c2)nc(SCc2ccc3nc(Cl)ccc3c2)[nH]1,TOP2B,decatenation,,7.8 µM,,mean decatenated DNA,91.9%
N#CC(=Cc1cccc2ccccc12)C(=O)NCc1ccc(Cl)cc1,UCHL1,"covalent, intact protein LC-MS",,12.5 µM,,labelling,10.7%
O=C(O)c1ccc(O)cc1,BEST1,whole-cell patch clamp,HEK293 transiently expressing channel,"concentration not given, membrane potential -80 mV",,current density,-32.8 pA/pF and -24 pA/pF and -17 pA/pF and -33.2 pA/pF and -29.2 pA/pF and -31.8 pA/pF and -18.5 pA/pF
O=c1nc(SCc2cc(F)cc(C(F)(F)F)c2)nc(SCc2ccc3sccc3c2)[nH]1,"TOP2A (Homo sapiens, UniProt P11388)",ATPase activity,,"3.9 µM, with: ATP 0.05 mM",,ATP hydrolysis rate,0.342 µM/min and 0.633 µM/min
Oc1ccc([C@@H]2c3c(O)cc(O)cc3[C@@H]3c4c(cc(O)c5c4[C@@H]2[C@H](c2ccc(O)cc2)[C@H]5c2cc(O)cc4c2[C@@H](c2cc(O)cc(O)c2)[C@H](c2ccc(O)cc2)O4)O[C@H]3c2ccc(O)cc2)cc1,"Alpha-amylase 1A (AMY1A, Homo sapiens, UniProt P0DUB6)",enzyme activity,,5 µM,,Vmax,659 ± 96 µmol/min
CC[C@@H](C)[C@@H](NC(=O)[C@@H](Cc1ccc(O)cc1)NC(=O)[C@H]1CCCN1C(=O)[C@@H](CCCNC(=N)N)NC(=O)[C@H](N)Cc1c[nH]cn1)C(=O)N[C@H](C)C(=O)N[C@H](Cc1c[nH]cn1)C(=O)N[C@H](CCCNC(=N)N)C(=O)N[C@@H](C(=O)N[C@H](Cc1ccc(O)cc1)C(=O)N[C@H](CO)C(=O)N[C@H](Cc1ccccc1)C(N)=O)C(C)C,"Transferrin receptor protein 1 (Tfrc, Mus musculus, UniProt Q62351)",flow cytometry,DC2.4,"24 h, pH 6, replicate 1, unit not given",baseline: 0 h,surface TFRC expression,0.922
O=C(O)CC(CNS(=O)(=O)c1cccc(Cl)c1O)c1ccc(Br)s1 (stereo not shown),malate dehydrogenase,"enzyme activity, inhibitor",,"200 µM, pH 7.0, 1% DMSO, aggregation counter-screen",,remaining activity,79%
O=C(O)c1ccc(Nc2ncc3c(n2)-c2ccc(Cl)cc2C(c2c(F)cccc2F)=NC3)cc1,MSK2(h),kinase activity,,1 µM,,remaining activity,106%
CC1(C)CC2(C)OC(=O)NC2(C)c2ccccc21 (stereo not shown),"Leucine-rich repeat serine/threonine-protein kinase 2, WD40 domain (LRRK2, Homo sapiens, UniProt Q5S007)","binding, affinity selection mass spectrometry",,,baseline: other proteins in batch,fold enrichment,1.11
N#CC(=Cc1csnn1)C(=O)Nc1ccc(Oc2ccccc2)cc1,UCHL1,"covalent, intact protein LC-MS",,12.5 µM,,labelling,41.2%
CN(C)C(=O)C(CCN1CCC(O)(c2ccc(Cl)cc2)CC1)(c1ccccc1)c1ccccc1,"Calcium-activated potassium channel subunit alpha-1, with LRRC26 γ1 subunit (KCNMA1, Homo sapiens, UniProt Q12791)","BK current, inside-out patch clamp",excised membrane patch,"10 µM, γ1 coexpressed, individual fits, with: nominally 0 Ca2+ cytosolic",,effective gating valence,1.07 ± 0.07 elementary charges
CC(=O)N[C@@H](Cc1ccccc1)C(=O)N1CCC[C@H]1C(=O)N1CCC[C@H]1C(=O)N1CCC[C@H]1C(=O)N1CCC[C@H]1C(=O)O,"Vasodilator-stimulated phosphoprotein, EVH1 domain (VASP, Homo sapiens, UniProt P50552)",fluorescence titration,,25 °C,,binding free energy,-17.7 kJ/mol
Nc1ncnc2c1ncn2[C@@H]1O[C@H](COP(=O)(O)CP(=O)(O)OP(=O)(O)O)[C@@H](O)[C@H]1O,"P2X purinoceptor 1 (P2RX1, Homo sapiens, UniProt P51575, S286A)",saturation binding,HEK293,25 nM,,specific binding,2560 CCPM and 6270 CCPM and 1820 CCPM
O=c1[nH]c2ccc(NS(=O)(=O)c3cc(Cl)cc(Cl)c3O)cc2s1,malate dehydrogenase,"enzyme activity, inhibitor",,"200 µM, pH 7.0, 1% DMSO, aggregation counter-screen",,remaining activity,73%
CC(CC(=O)NC(CC(=O)O)c1cc([N+](=O)[O-])ccc1Cl)c1ccccc1 (stereo not shown),UCHL1,"covalent, intact protein LC-MS",,12.5 µM,,labelling,13.8%
CC(=C/C(=O)O)/C=C/C=C(\C)C1C=C2C(C)(C)CCCC2(C)O1 (stereo not shown),"Rhodopsin (RHO, Homo sapiens, UniProt P08100, E181K)","immunostaining, refers to: opsin",COS-7 transfected,"50.00 µM, unit not given",baseline: surface over total stained cells,plasma membrane localization,0.98
Cc1cc2nc3c(=O)[nH]c(=O)nc-3n(C[C@H](O)[C@H](O)[C@H](O)COP(=O)(O)OP(=O)(O)OC[C@H]3O[C@@H](n4cnc5c(N)ncnc54)[C@H](O)[C@@H]3O)c2cc1C,"Acyl-coenzyme A oxidase acox-1.1 (acox-1.1, Caenorhabditis elegans, UniProt O62140)",UV spectroscopy,,,,enzyme bound with compound,49.8% and 38% and 36% and 40.1% and 47% and 58% and 46%
C=CC(=O)N1CCC(COCC(=O)N2CCN(c3nc(-c4cnc(N)nc4C(F)F)nc(N4CCOC[C@@H]4C)n3)CC2)CC1,PAK1,KINOMEscan,,1 µM,,remaining binding,100%
C=CC(=O)N1CCC[C@@H](n2nc(-c3ccc(Oc4ccccc4)cc3)c3c(N)ncnc32)C1,"PDGFRB (Homo sapiens, UniProt P09619)",,,0.1 µM,,remaining activity,110%
COc1cc2c(cc1OC)C(=O)C(CC1CCN(Cc3ccccc3)CC1)C2 (stereo not shown),Voltage-dependent P/Q-type calcium channel subunit alpha-1A,"ion current, antagonist",HEK293,3 µM,,inhibition,0%
CC(Cl)C(=O)N1CCN(C(C)c2cccc(C#N)c2)CC1 (stereo not shown),UCHL1,"covalent, intact protein LC-MS",,12.5 µM,,labelling,12.6%
O=C1NCCN1CCN1CCC(c2cn(-c3ccc(F)cc3)c3ccc(Cl)cc23)CC1,Voltage-dependent P/Q-type calcium channel subunit alpha-1A,"ion current, antagonist, automated patch clamp",,,,IC30,2.12 µM
C#CCCC1(CC[C@H](NC(=O)NCCCCCCNC(=O)NCCNC(=O)COc2cccc([C@@H](CCc3ccc(OC)c(OC)c3)OC(=O)[C@@H]3CCCCN3C(=O)C(=O)C(C)(C)CC)c2)C(N)=O)N=N1.O=C(O)C(F)(F)F,"FKBP1A (Homo sapiens, UniProt P62942)","photoaffinity labeling, in-gel fluorescence, refers to: Alexa Fluor 647 click label",,"0.016 µM, UV irradiation 365 nm","baseline: probe over FKBP12 signal, higher = more labeling",normalized labeling ratio,0.094
O=C(O)c1ccc([N+](=O)[O-])cc1,BEST1,whole-cell patch clamp,HEK293 transiently expressing channel,"concentration not given, membrane potential -100 mV",,current density,-104 pA/pF and -130 pA/pF and -70 pA/pF and -74.4 pA/pF and -93.6 pA/pF and -44.2 pA/pF and -42.5 pA/pF
Cc1ccc(NC(=O)C(C#N)=Cc2ccccc2OC(F)F)cc1,UCHL1,"covalent, intact protein LC-MS",,12.5 µM,,labelling,33.4%
COc1cccc2c(Nc3ccc4[nH]c(C(=O)N/N=C/c5ccc(SC)cc5)cc4c3)cc(C)nc12,"Vitamin D3 receptor (VDR, Homo sapiens, UniProt P11473)","reporter gene, Gal4 hybrid reporter",,3 µM,baseline: vehicle,activation,1.12 fold
CC(=O)Nc1ccc(S(=O)(=O)Oc2ccccc2C=O)cc1,UCHL1,"covalent, intact protein LC-MS",,12.5 µM,,labelling,15.3%
COc1ccc(Br)c(CCNS(=O)(=O)c2ccsc2C(=O)O)c1,malate dehydrogenase,"enzyme activity, inhibitor",,"200 µM, pH 7.0, 1% DMSO, aggregation counter-screen",,remaining activity,78%
